# Assay results pooled from the literature.
# Lines come from different studies, so protocols differ. ± gives the spread as reported.
Compound,tested on,test,test system,setting,scale,measurement,result
CC(=O)[O-].O.[Cu+2].[O-]c1ccc(Br)cc1C=NCCN1CCOCC1,,DPPH radical scavenging,,40 µM,,inhibition,18.5%
CN(Cc1cc(C2CC2)on1)C(=O)c1cccc(-c2ccc3c(c2)CCO3)c1,acetyl-CoA synthetase 1 (Aspergillus fumigatus),"enzyme activity, inhibitor, coupled pyrophosphate",,1 µM,higher is more activity,reaction rate,0.00126 a.u.
Cc1ccc(Nc2n[nH]c3nc(-c4cccc(F)c4)nc(N)c23)cc1,rhinovirus B42,viral cytopathic effect,HeLa,,,IC50,0.08 µM
Cc1cc(N2CCCCC2)ccc1-c1cc2c(N3CCC[C@H](C(=O)NCc4ccc(OC(F)(F)F)cc4)C3)ncnc2[nH]1,NCI-H2228,"cell growth or viability, MTT",,"0.2 µg/mL, 72 h",,inhibition,72%
COc1ccc(C(=O)CCc2cc(C(CCc3ccc(O)cc3OC)c3ccc(O)cc3)c(O)cc2OC)cc1 (racemic),,,human blood,"10 µM, with: A23187",,5-HEPE level,124 ± 42 pg/mL
Cc1noc(C)c1-c1cc2c(N3CCC[C@H](C(=O)NCc4ccc(OC(F)(F)F)cc4)C3)ncnc2[nH]1,NCI-H2228,"cell growth or viability, MTT",,"0.008 µg/mL, 72 h",,inhibition,17.8%
CN1CCC[C@]1(C)/C=C/S(=O)(=O)NC(=O)Nc1c2c(cc3c1CCC3)CCC2,,,"human, whole blood ex vivo","100 mg single dose, 3 h, single ascending dose, with: LPS and ATP",,IL-1β inhibition,99.5%
Cc1cc(NC2CCN(C)CC2)ccc1-c1cc2c(N3CCC[C@H](C(=O)N4CCCCC4)C3)ncnc2[nH]1,NCI-H2228,"cell growth or viability, MTT",,"0.04 µg/mL, 72 h",,inhibition,0.5%
Cc1c(C)c2cccnc2c2ncccc12.O=[N+]([O-])[O-].O=c1c(C=NN=C([S-])Nc2ccccc2)coc2ccccc12.[Cu+2],supercoiled pUC19 DNA,oxidative DNA cleavage,,"concentration not given, catalase 0.1 U, with: ascorbic acid",,supercoiled DNA remaining,86%
CNS(=O)(=O)Nc1nccc(Cc2c(C)c3ccc(Oc4ncccc4F)cc3oc2=O)c1F,KYSE-270,cell viability,,7 days,,IC50,> 1 µM
Cc1ncsc1-c1ccc(C(C)NC(=O)C2CC(O)CN2C(=O)C(NC(=O)CCCCCCCCCCN2CCCC(Nc3ncc(Cl)c(Nc4ccccc4S(=O)(=O)C(C)C)n3)C2)C(C)(C)C)cc1 (stereo not drawn),22Rv1,"RNA-seq, measured: ZNF689 mRNA",,concentration not given,reference: DMSO,log2 fold change,-1.61
Cc1cccc(-c2nc(N)c3c(Nc4ccc(F)cc4)n[nH]c3n2)c1,rhinovirus B42,viral cytopathic effect,HeLa,,,IC50,2.03 µM
COC1CN([C@H]2CC[C@H]([C@@]3(C)Oc4c(Cl)cc(C(=O)NCc5c(SC)cc(C)[nH]c5=O)c(C)c4O3)CC2)C1,,"RNA-seq, measured: RAB20","human, whole blood","dose not given, 24 h",reference: pretreatment baseline,log2 fold change,1.15
Nc1nc(-c2ccccc2)nc2[nH]nc(Nc3c(F)cc(F)cc3F)c12,coxsackievirus B3,viral cytopathic effect,HeLa,,,IC50,11.7 µM
COc1cc(O)ccc1CCC(c1ccc(O)cc1)c1cc2c(c(C)c1O)OC(c1ccc(O)cc1)CC2 (mixture of isomers),,,human blood,"1 µM, with: A23187",,PGD2 level,5 ± 1 pg/mL
C=C(NC(=O)c1csc(-c2nc3c(cc2O)-c2nc(cs2)C(=O)NC(C(C)O)C(=O)NC(=C(C)OC)c2nc(cs2)C(=O)NC2c4nc(cs4)C(=O)NC(COC(=O)c4c5c6c(cccc6n4O)COC(=O)C(OC4CC(C)(O)C(N(C)C)C(C)O4)C2OC5)c2nc-3cs2)n1)C(N)=O (stereo not drawn),Streptococcus pneumoniae,,"ATCC 49619, immunocompromised mice, lung infection","24 h, bid dosing",,ED50,4.54 mg/kg
O=C(NCc1ccc(OC(F)(F)F)cc1)[C@H]1CCCN(c2ncnc3[nH]c(-c4cccnc4)cc23)C1,NCI-H2228,"cell growth or viability, MTT",,"0.04 µg/mL, 72 h",,inhibition,53.2%
Nc1ncc(-c2cc(-c3cnn(CC(F)(F)F)c3)ncc2F)nc1C(=O)NC1CNCC(F)C1 (stereo not drawn),NEK6,KINOMEscan,,1 µM,reference: DMSO control,remaining binding,93%
CN1CCCNC(=O)c2cccc(c2)C(=O)NCCCN(C)CCCNc2cccc3c2C(=O)c2cccc(c2C3=O)NCCC1,SAS,"RNA-Seq, measured: NFRKB mRNA",,"1 µM, 6 h",reference: untreated cells,log2 fold change,-1.32
C=CC(=O)Nc1cccc(Cn2ncc3cnc(Nc4cnn(CCOC)c4)nc32)c1,human ABL1-phosphorylated,KINOMEscan,,100 nM,reference: control,binding,9.3%
COc1ccc(Nc2n[nH]c3nc(-c4ccccc4)nc(N)c23)c(OC)c1,rhinovirus B42,viral cytopathic effect,HeLa,,,IC50,0.55 µM
C=CC(=O)N1[C@@H](c2ccc3c(c2)OCO3)c2[nH]c3ccccc3c2C[C@H]1C(=O)N1CCN(C)CC1,human cyclin E1 N112C-3xFLAG:CDK2,"co-IP with TMT proteomics, measured: HNRNPK",,"concentration not given, P61978",reference: wild type DMSO,relative co-enrichment,121%
CCN(CC)CC(=O)Nc1cccc(-n2cc(-c3ccc4ccc(-c5cn(-c6cccc(NC(=O)CN(CC)CC)c6)nn5)cc4c3)nn2)c1,RCC4,"PCR angiogenesis array, measured: PF4",,"5 x IC50, 4 h, normoxia",reference: untreated,fold regulation,1.06
CC(C)c1ccc(N(C)c2ccc3c(c2)OCC[C@H]3CNc2cnccc2C(=O)O)cc1,NCI-H2081,"cell viability, CellTiter-Glo",,7 days,,IC50,0.00257 µM

# For quick reference, copied from above:
Compound,tested on,test,test system,setting,scale,measurement,result
Cc1c(C)c2cccnc2c2ncccc12.O=[N+]([O-])[O-].O=c1c(C=NN=C([S-])Nc2ccccc2)coc2ccccc12.[Cu+2],supercoiled pUC19 DNA,oxidative DNA cleavage,,"concentration not given, catalase 0.1 U, with: ascorbic acid",,supercoiled DNA remaining,86%
Cc1cc(N2CCCCC2)ccc1-c1cc2c(N3CCC[C@H](C(=O)NCc4ccc(OC(F)(F)F)cc4)C3)ncnc2[nH]1,NCI-H2228,"cell growth or viability, MTT",,"0.2 µg/mL, 72 h",,inhibition,72%
O=C(NCc1ccc(OC(F)(F)F)cc1)[C@H]1CCCN(c2ncnc3[nH]c(-c4cccnc4)cc23)C1,NCI-H2228,"cell growth or viability, MTT",,"0.04 µg/mL, 72 h",,inhibition,53.2%
Nc1ncc(-c2cc(-c3cnn(CC(F)(F)F)c3)ncc2F)nc1C(=O)NC1CNCC(F)C1 (stereo not drawn),NEK6,KINOMEscan,,1 µM,reference: DMSO control,remaining binding,93%
